# Experimental data gathered from unrelated publications.
# Lines come from different studies, so protocols differ. “And” joins repeats or separate records; there may be more than shown. ± gives the spread as reported.
# KIT: Mast/stem cell growth factor receptor Kit (KIT, Homo sapiens, UniProt P10721)
# Chain of UniProt P10721 (whole entry, looked up): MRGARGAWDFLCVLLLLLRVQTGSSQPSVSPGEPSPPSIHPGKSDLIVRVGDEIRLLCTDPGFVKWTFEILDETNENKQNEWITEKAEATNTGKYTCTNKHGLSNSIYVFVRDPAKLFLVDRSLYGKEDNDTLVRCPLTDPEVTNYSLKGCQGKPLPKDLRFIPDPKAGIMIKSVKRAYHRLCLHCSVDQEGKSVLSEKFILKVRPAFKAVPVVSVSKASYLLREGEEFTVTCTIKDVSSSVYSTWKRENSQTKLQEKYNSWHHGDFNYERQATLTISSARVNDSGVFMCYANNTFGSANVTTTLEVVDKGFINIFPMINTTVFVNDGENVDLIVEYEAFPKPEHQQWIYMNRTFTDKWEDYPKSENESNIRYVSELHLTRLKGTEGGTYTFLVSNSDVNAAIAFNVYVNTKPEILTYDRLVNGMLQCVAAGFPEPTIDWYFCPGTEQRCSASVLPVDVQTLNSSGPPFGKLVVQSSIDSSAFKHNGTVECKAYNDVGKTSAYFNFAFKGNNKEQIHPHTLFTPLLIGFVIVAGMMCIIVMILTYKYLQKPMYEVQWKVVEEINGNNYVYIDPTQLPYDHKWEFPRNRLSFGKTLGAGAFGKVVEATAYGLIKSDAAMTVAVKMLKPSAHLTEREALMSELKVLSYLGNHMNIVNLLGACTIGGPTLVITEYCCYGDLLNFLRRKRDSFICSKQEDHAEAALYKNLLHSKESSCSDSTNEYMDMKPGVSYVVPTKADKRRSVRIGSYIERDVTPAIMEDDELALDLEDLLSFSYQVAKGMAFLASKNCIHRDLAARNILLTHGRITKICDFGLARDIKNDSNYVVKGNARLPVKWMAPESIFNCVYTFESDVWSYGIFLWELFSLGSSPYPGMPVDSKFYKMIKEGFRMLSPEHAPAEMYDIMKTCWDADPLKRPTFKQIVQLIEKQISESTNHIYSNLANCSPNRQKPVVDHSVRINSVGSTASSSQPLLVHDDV
# CCR8: C-C chemokine receptor type 8 (CCR8, Homo sapiens, UniProt P51685)
# Chain of UniProt P51685 (whole entry, looked up): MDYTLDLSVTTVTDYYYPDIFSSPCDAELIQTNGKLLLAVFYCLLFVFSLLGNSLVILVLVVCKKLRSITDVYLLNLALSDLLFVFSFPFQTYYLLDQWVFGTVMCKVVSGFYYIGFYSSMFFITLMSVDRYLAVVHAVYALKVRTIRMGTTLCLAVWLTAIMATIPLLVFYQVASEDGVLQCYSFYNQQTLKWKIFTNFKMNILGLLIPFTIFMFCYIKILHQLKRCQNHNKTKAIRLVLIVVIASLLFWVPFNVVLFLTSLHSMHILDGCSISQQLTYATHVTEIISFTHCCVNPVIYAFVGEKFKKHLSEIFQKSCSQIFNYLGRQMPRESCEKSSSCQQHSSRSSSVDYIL
# HTR1B: 5-hydroxytryptamine receptor 1B (HTR1B, Homo sapiens, UniProt P28222)
# Chain of UniProt P28222 (whole entry, looked up): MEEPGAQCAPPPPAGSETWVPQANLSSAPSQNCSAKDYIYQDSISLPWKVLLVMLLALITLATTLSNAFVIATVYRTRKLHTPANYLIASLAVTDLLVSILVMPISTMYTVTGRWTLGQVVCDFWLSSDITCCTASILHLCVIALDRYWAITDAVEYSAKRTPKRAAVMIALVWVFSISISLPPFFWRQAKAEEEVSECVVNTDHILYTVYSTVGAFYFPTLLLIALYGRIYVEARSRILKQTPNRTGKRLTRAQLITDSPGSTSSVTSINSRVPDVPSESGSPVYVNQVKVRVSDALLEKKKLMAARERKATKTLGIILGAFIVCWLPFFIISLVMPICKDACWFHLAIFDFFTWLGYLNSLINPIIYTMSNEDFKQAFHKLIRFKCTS
# SLC22A12: Solute carrier family 22 member 12 (SLC22A12, Homo sapiens, UniProt Q96S37)
# Chain of UniProt Q96S37 (whole entry, looked up): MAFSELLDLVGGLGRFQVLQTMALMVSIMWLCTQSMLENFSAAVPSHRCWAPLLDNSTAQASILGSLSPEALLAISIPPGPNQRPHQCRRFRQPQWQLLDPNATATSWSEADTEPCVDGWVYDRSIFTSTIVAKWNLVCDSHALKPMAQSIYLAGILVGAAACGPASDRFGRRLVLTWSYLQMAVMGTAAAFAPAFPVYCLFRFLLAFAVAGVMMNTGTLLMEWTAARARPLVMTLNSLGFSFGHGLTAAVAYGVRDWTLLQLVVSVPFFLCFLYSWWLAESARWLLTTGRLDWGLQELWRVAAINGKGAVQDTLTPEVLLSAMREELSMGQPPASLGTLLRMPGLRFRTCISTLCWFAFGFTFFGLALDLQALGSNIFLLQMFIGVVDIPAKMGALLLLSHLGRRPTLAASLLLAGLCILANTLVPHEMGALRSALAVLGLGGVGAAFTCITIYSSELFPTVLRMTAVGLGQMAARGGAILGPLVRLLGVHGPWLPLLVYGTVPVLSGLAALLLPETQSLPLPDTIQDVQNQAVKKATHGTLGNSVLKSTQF
# STK38: Serine/threonine-protein kinase 38 (STK38, Homo sapiens, UniProt Q15208)
# Chain of UniProt Q15208 (whole entry, looked up): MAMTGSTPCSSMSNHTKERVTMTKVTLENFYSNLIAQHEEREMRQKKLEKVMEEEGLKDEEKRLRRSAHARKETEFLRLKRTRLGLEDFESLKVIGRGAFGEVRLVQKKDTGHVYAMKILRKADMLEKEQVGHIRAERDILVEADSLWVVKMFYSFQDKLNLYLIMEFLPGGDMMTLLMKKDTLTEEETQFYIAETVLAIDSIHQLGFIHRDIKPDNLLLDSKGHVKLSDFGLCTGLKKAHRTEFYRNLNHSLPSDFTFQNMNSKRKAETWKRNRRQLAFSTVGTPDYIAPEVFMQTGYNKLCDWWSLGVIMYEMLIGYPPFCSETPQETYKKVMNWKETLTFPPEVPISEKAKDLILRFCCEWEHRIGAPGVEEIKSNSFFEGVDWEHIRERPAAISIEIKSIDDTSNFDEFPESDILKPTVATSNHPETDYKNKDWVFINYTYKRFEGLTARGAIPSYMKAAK
# Ubiquitin carboxyl-terminal hydrolase 39 ZnF-UBD domain: Ubiquitin carboxyl-terminal hydrolase 39, ZnF-UBD domain (Homo sapiens, UniProt Q53GS9)
# Chain of UniProt Q9Y233 (whole entry, looked up): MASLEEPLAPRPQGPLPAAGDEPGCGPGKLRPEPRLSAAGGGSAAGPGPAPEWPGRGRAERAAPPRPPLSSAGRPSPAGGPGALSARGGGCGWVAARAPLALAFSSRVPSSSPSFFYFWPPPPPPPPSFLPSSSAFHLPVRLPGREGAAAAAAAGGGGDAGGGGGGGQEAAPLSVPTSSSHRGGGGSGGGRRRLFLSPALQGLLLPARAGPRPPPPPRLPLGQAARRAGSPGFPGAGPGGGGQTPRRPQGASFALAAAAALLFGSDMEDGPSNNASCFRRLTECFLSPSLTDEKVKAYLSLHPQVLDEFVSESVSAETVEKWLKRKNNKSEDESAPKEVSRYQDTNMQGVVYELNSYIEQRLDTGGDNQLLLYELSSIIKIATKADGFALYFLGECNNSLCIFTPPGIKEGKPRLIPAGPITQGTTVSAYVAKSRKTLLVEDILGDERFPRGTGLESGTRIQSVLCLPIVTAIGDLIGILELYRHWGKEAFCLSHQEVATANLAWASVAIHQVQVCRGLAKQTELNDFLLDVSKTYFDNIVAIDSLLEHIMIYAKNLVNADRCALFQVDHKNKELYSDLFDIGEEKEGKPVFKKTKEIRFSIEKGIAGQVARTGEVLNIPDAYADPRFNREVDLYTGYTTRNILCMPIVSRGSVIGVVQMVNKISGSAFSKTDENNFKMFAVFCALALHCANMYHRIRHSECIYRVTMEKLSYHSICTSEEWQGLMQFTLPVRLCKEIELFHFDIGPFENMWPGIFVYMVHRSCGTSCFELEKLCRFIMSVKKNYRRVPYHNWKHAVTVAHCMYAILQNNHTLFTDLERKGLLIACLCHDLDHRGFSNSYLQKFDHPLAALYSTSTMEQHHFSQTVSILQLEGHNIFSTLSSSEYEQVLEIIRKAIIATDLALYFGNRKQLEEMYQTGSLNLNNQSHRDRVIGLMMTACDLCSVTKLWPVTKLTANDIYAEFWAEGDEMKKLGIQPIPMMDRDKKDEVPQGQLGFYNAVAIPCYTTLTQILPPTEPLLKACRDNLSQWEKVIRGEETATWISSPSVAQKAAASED
# Chain of UniProt Q53GS9 (whole entry, looked up): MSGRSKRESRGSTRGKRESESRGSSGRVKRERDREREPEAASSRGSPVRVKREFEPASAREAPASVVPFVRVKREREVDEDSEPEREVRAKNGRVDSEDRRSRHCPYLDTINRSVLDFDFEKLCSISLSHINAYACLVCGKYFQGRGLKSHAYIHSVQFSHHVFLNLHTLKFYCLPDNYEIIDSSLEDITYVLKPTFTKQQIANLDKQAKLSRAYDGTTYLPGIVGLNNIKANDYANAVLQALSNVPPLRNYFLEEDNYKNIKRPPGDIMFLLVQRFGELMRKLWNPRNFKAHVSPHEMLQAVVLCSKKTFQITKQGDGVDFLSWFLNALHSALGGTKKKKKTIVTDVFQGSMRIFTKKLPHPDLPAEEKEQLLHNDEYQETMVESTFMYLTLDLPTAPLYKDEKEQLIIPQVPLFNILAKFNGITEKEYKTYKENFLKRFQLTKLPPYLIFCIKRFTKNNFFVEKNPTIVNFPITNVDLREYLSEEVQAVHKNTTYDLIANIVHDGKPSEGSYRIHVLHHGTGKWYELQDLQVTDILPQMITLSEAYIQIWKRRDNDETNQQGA
# Chain of UniProt Q8N6T7 (whole entry, looked up): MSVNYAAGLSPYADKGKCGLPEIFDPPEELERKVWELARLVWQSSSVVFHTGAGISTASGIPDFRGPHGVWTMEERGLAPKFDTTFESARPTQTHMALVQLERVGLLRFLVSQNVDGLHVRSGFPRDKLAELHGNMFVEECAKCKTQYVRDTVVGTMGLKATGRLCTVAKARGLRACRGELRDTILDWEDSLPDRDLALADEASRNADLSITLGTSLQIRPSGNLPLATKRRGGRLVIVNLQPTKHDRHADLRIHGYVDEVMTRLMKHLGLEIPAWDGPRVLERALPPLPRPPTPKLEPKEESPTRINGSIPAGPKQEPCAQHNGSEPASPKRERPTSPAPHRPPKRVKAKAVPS
SMILES,target or system,test,test system,conditions,scale,measurement,value
[2H]c1cc(C)c(NC(=O)c2cnc(Nc3cc(N4CCC(O)CC4)nc(C)n3)s2)c(Cl)c1,KIT,,,0.001 µM,,inhibition,< 50%
NS(=O)(=O)c1nnc(NC(=O)C2CCC3(CCCCC3)CC2)s1,"Alpha-carbonic anhydrase (Enterococcus faecium, UniProt Q3XYE8)","CO2 hydration, inhibitor, stopped-flow kinetics",,,,Ki,0.0493 µM
CC[C@]12CCCN3CCc4c([nH]c5ccccc45)[C@]31N(Cc1cn(Cc3ccccc3)nn1)C(=O)C2,CCR8,"beta-arrestin recruitment, antagonist, PathHunter chemiluminescence",,"20 µM, with: agonist at EC80",,inhibition,59%
COc1cc(C(=O)NS(=O)(=O)c2ccccc2C)ccc1Cc1cn(C)c2ccc(NC(=O)OC3CCCC3)cc12,"Volume-regulated anion channel subunit LRRC8C, part LRRC8A IL1 chimera (LRRC8C, Homo sapiens, UniProt Q8TDW0, C43G)","ion current, inhibitor, whole-cell patch clamp",HCT LRRC8-/- cells,"10 µM, +100 mV",,inhibition,97.1% and 95.7% and 97.7% and 90.1% and 91.6%
Cc1ccnc(C)c1OC[C@H]1CN(CCN2CCc3ccccc32)CCO1,HTR1B,radioligand binding,,"concentration not given, with: [3H]5-CT",,inhibition,-7.6%
CN1CCN(c2cc(-c3ccncc3)c(-c3ccc4ccccc4c3)nn2)CC1,CCR8,"antagonist, FLIPR",,10 µM,,inhibition,10.3%
C#Cc1cc(-c2cc(Nc3nc(N[C@@H](C)c4ccc(F)cn4)ncc3Cl)n[nH]2)ccc1C=O,KIT,"enzyme activity, inhibitor",,0.2 µM,,inhibition,52.1%
COc1cc(-c2cc(C(C)=O)n3ccccc23)cc(OC)c1Cn1ccnc1,"Bromodomain-containing protein 3, BD2 (BRD3, Homo sapiens, UniProt Q15059)",,,1 µM,,inhibition,-3.94%
O=C(CN1CCO[C@@H](COc2ccccn2)C1)N1CCc2ccccc21,HTR1B,radioligand binding,,"concentration not given, with: [3H]5-CT",,inhibition,-14.1%
Cc1nn(-c2nc3ccccc3s2)c(O)c1C(c1ccccc1C(=O)O)c1c(C)nn(-c2nc3ccccc3s2)c1O,"CGAS (Homo sapiens, UniProt Q8N884)","enzyme activity, inhibitor, pyrophosphatase-coupled",,"200 µM, 1.5 h, with: HT-DNA",,inhibition,88.3%
c1ccc(OC[C@@H]2CN(CCN3CCc4ccccc43)CCO2)cc1,HTR1B,radioligand binding,,"concentration not given, with: [3H]5-CT",,inhibition,43.5%
O=C(NS(=O)(=O)c1ccc(C(F)(F)F)cc1)c1cc2ccccc2n1Cc1ccc(Br)c2ccccc12,SLC22A12,"uric acid uptake, inhibitor",HEK293 transiently expressing URAT1,"10 µM, with: [14C]uric acid",,inhibition,-18.9% and -13.2%
Nc1nc2c(ncn2[C@@H]2O[C@H](COP(=O)(O)O)[C@@H](O)[C@H]2O)c(=O)[nH]1,,"binding, equilibrium dialysis LC-MS",,"5 µM, thermostabilized A2AR-BRIL construct","baseline: no-protein control, direction not given",z-scored log2 fold change,0.168
O=C1c2ccccc2CCN1CCCCN1CCN(c2ccccn2)CC1,HTR1B,radioligand binding,,"concentration not given, with: [3H]5-CT",,inhibition,60.1%
NC(=O)CCNC(=S)NCCCC[C@H](NS(=O)(=O)c1cccc(F)c1)C(=O)N[C@@H](Cc1c[nH]c2ccccc12)C(=O)NC1CCC1,"SIRT6 (Homo sapiens, UniProt Q8N6T7)",demyristoylase activity,,"10 µM, with: myristoylated peptide substrate and NAD+ 500 µM",,inhibition,< 0%
O=[N+]1C=CC(=C2C=CN([O-])C=C2)C=C1,"DYRK1A (Homo sapiens, UniProt Q13627)",enzyme activity,,10 µM,,inhibition,> 50%
O=C(NO)c1ccc(CN2CCCCc3ccccc32)c(F)c1,HTR1B,"radioligand binding, radioligand displacement",,"10 µM, mean of replicates",,inhibition,-22.7%
CCS(=O)(=O)c1nc(S(=O)(=O)c2ccccc2Cl)c(N2CCN(C)C(=O)[C@H]2C)s1,HTR1B,,,10 µM,,inhibition,2.32%
O=C(NS(=O)(=O)C1CC1)c1cc2ccccc2n1Cc1ccc(C2CC2)c2ccccc12,SLC22A12,"uric acid uptake, inhibitor",HEK293 transiently expressing URAT1,"20 µM, with: [14C]uric acid",,inhibition,83.5% and 119%
Cc1cc(-c2ccnc3[nH]cc(F)c23)cc(F)c1[C@@]1(O)[C@H](C)CN(C2CCS(=O)(=O)CC2)C[C@@H]1C,STK38,"ATP probe binding, KiNativ, refers to: Lys1 site",HEK293T cell lysate,1 µM,,inhibition,1.3%
Cc1ccc(S(=O)(=O)n2cc(/C=N/NC(=S)NCc3ccccc3)c3ccccc32)cc1,mushroom tyrosinase,"enzyme activity, inhibitor",,"0.5 mM, with: L-DOPA substrate",,inhibition,74.8%
O=C(c1ccc(F)cc1)N(Cc1ccccc1)C1CCCCC1,"SLC6A4 (Homo sapiens, UniProt P31645)",,,10 µM,,inhibition,3%
Cc1ccc(S(=O)(=O)n2cc(/C=N/NC(=S)Nc3ccc(Br)cc3)c3ccccc32)cc1,mushroom tyrosinase,"enzyme activity, inhibitor",,"0.5 mM, with: L-DOPA substrate",,inhibition,88.5%
Cc1sc2ncn(CC(=O)O)c(=O)c2c1C,Ubiquitin carboxyl-terminal hydrolase 39 ZnF-UBD domain,,,,,Kd,> 1000 µM
CCc1nn(C)c2nc(-c3ccc(C(=O)O)cc3)nc(NCc3ccc(F)cc3)c12,"PDE10A (Homo sapiens, UniProt Q9Y233)",enzyme activity,,"10 µM, with: [3H]cAMP",,inhibition,32.2%
[2H]c1cc(C)c(NC(=O)c2cnc(Nc3cc(N4CCCCC4)nc(C)n3)s2)c(Cl)c1,"CSF1R (Homo sapiens, UniProt P07333)",,,0.0001 µM,,inhibition,> 50%
O=C(O)CCn1ccccc1=O,Ubiquitin carboxyl-terminal hydrolase 39 ZnF-UBD domain,,,,,Kd,> 1000 µM
O=C(CCCN1CCC(O)(c2ccc(Cl)cc2)CC1)c1ccc(F)cc1,rat Sigma receptor,binding,,1 × 10 µM,,inhibition,98.7%
CC1CNCCN1S(=O)(=O)c1cccc2cnccc12 (stereo not shown),"ATP-sensitive inward rectifier potassium channel 11 (Homo sapiens, UniProt Q14654)","channel activity, inside-out patch clamp",HEK293 expressing Kir6.2 without SUR1,"concentration not given, 10 min",baseline: control,inhibition,19 ± 8%
COc1cccc(OC[C@@H]2CN(CCN3CCc4ccccc43)CCO2)c1,HTR1B,radioligand binding,,"concentration not given, with: [3H]5-CT",,inhibition,31.6%
CC[C@@H]1[C@H](F)C(=O)N[C@@H]1COc1nccc2cc(C(N)=O)c(OC)cc12,STK38,"ATP-site probe binding, ActivX profiling",THP-1 cell lysate,"0.04 mM, Lys2 site",,inhibition,5.4%
Cc1cc(-c2ccnc3[nH]cc(F)c23)cc(F)c1[C@@]1(O)[C@H](C)CN(C(=O)CN)C[C@@H]1C,STK38,"ATP probe binding, KiNativ, refers to: Lys2 site",HEK293T cell lysate,0.1 µM,,inhibition,-3.1%
O=C(Nc1cccc2c(=O)cc(-c3nnn[nH]3)oc12)c1ccc(OCCCCc2ccccc2)cc1,"Volume-regulated anion channel subunit LRRC8C, part LRRC8A IL1 chimera (LRRC8C, Homo sapiens, UniProt Q8TDW0, E6A)","ion current, inhibitor, whole-cell patch clamp",HCT LRRC8-/- cells,"0.3 µM, +100 mV",,inhibition,59.6% and 42.9% and 64.2% and 45.7%
CCOC(=O)c1cnn(-c2ccc(NC(=O)C(Cl)=C(Cl)Cl)cc2)c1C(F)(F)F,"TRPC6 (Homo sapiens, UniProt Q9Y210)","ion current, inhibitor, whole-cell patch clamp",,"10 µM, with: carbachol",,inhibition,inhibited
O=C(O)c1ccc(O)cc1,,"binding, equilibrium dialysis LC-MS",,"5 µM, thermostabilized A2AR-BRIL construct","baseline: no-protein control, direction not given",z-scored log2 fold change,-0.134
CN(C(=O)n1cnc(-c2ccc[n+]([O-])c2)c1)C1CCCCC1,"CCKBR (Homo sapiens, UniProt P32239)",,,10 µM,,inhibition,12%
Clc1cccc(OC[C@H]2CN(CCN3CCc4ccccc43)CCO2)c1,HTR1B,radioligand binding,,"concentration not given, with: [3H]5-CT",,inhibition,24.7%
Cc1ccc(S(=O)(=O)n2cc(/C=N/NC(=S)NCc3ccc(Cl)cc3)c3ccccc32)cc1,mushroom tyrosinase,"enzyme activity, inhibitor",,"0.5 mM, with: L-DOPA substrate",,inhibition,91.7%
Cc1cc2c(cc1N1C(=O)c3cccc4c(CCCO)ccc(c34)C1=O)n(C)c(=O)n2C (racemic),"Bromodomain-containing protein 3, BD1 (BRD3, Homo sapiens, UniProt Q15059)","binding, BROMOscan binding",,1000 nM,,inhibition,71%
c1cncc(OC[C@H]2CN(CCN3CCc4ccccc43)CCO2)c1,HTR1B,radioligand binding,,"concentration not given, with: [3H]5-CT",,inhibition,-5.9%
COc1ccc(NC(=S)N/N=C/c2cn(S(=O)(=O)c3ccc(C)cc3)c3ccccc23)cc1,mushroom tyrosinase,"enzyme activity, inhibitor",,"0.5 mM, with: L-DOPA substrate",,inhibition,88%
COc1ccc2c(c1)C(=O)N(CCN1CCN(c3ccccc3OC)CC1)C2,HTR1B,radioligand binding,,"concentration not given, with: [3H]5-CT",,inhibition,83%
Cc1ccc(S(=O)(=O)n2cc(/C=N/NC(=S)Nc3ccccc3F)c3ccccc32)cc1,mushroom tyrosinase,"enzyme activity, inhibitor",,"0.5 mM, with: L-DOPA substrate",,inhibition,91.5%

# For quick reference, copied from above:
SMILES,target or system,test,test system,conditions,scale,measurement,value
CN(C(=O)n1cnc(-c2ccc[n+]([O-])c2)c1)C1CCCCC1,"CCKBR (Homo sapiens, UniProt P32239)",,,10 µM,,inhibition,12%
Clc1cccc(OC[C@H]2CN(CCN3CCc4ccccc43)CCO2)c1,HTR1B,radioligand binding,,"concentration not given, with: [3H]5-CT",,inhibition,24.7%
Cc1ccc(S(=O)(=O)n2cc(/C=N/NC(=S)NCc3ccc(Cl)cc3)c3ccccc32)cc1,mushroom tyrosinase,"enzyme activity, inhibitor",,"0.5 mM, with: L-DOPA substrate",,inhibition,91.7%
